Results from different studies.
Every numbered part comes from another study and shows a few of its results, in no order. Changes are numbered by the printed parent chain.

Block 1
Target: ABI1, truncated, D143A, DHFR fusion (Arabidopsis thaliana)
Technique: DHFR PCA, deep sequencing
Matrix: yeast
Setting: methotrexate growth selection, single substitutions
Added: (+)-ABA 2500 µM
Relative to: wild-type fitted maximum
Reading: higher = stronger binding
Parent: PYL1, truncated, DHFR fusion (Arabidopsis thaliana); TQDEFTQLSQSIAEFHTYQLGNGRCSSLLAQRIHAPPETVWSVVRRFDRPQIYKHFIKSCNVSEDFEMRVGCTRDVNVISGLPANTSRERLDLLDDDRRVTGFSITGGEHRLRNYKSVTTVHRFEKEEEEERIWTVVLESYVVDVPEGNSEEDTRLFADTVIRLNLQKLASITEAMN; partner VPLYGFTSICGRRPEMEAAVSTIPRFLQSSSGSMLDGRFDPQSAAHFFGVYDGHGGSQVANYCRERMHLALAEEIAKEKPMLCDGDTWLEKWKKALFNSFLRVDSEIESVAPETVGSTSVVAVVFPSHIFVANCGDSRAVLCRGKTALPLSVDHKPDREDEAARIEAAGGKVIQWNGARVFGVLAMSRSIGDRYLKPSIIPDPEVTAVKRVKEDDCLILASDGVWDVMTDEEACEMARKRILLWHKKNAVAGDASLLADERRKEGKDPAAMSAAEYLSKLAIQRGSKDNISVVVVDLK
`R49I` — result for “relative binding score”: 85.6%.
Under “relative binding score”, `E151T` is recorded as 94%.
For `K58H`, “relative binding score” read 90.8%.
For `K54I`, “relative binding score” read -1.76%.
Under “relative binding score”, `R88H` is recorded as 103%.
`V44L` — result for “relative binding score”: 92.4%.
Under “relative binding score”, `Q31N` is recorded as 86.3%.
Under “relative binding score”, `V78I` is recorded as 96.9%.
`F124P` — result for “relative binding score”: 95.9%.
`R113C` — result for “relative binding score”: 105%.

Block 2
Target: Prothrombin, mature alpha-thrombin (F2, Homo sapiens, UniProt P00734)
Technique: aptamer microarray, sandwich
Molecule type: DNA with 2'F-ANA
Matrix: in vitro
Concentration: 200 nM
Setting: whole 15-mer aptamer, many near background
Added: Cy3 exosite-II aptamer, 400 nM
Reading: higher = stronger binding
Sequence: GGTTGGTGTGGTTGG
Under “mean fluorescence intensity”, `2'F-ANA at 4 7 8 9 10 12 13 14` is recorded as 69.4 a.u.
`2'F-ANA at 2 4 8 11 13 14 15`: “mean fluorescence intensity” 90.5 a.u.
`2'F-ANA at 1 2 5 7 9 10 12 13 15`: “mean fluorescence intensity” 49.5 a.u.
`2'F-ANA at 4 7 8 10 13` — result for “mean fluorescence intensity”: 75.4 a.u.
Under “mean fluorescence intensity”, `2'F-ANA at 1 2 3 4 5 6 7 8 10 13 14 15` is recorded as 99.6 a.u.
`2'F-ANA at 2 3 11` — result for “mean fluorescence intensity”: 813 a.u.
`2'F-ANA at 2 3 4 5 6 9 10 13 14`: “mean fluorescence intensity” 83.4 a.u.
Under “mean fluorescence intensity”, `2'F-ANA at 4 5 6 8 13` is recorded as 53.1 a.u.
`2'F-ANA at 3 4 6 7 9 12 14 15` — result for “mean fluorescence intensity”: 254 a.u.
For `2'F-ANA at 2 4 5 6 15`, “mean fluorescence intensity” read 66.4 a.u.

Block 3
Target: CCND2, cyclin fold, Cln2 fusion (human)
Technique: yeast growth competition, sequencing
Matrix: yeast
Setting: weak parent motif
Relative to: not given
Reading: higher = stronger binding
Parent: E2F3 docking peptide (human); PPAKRRLELGESG; partner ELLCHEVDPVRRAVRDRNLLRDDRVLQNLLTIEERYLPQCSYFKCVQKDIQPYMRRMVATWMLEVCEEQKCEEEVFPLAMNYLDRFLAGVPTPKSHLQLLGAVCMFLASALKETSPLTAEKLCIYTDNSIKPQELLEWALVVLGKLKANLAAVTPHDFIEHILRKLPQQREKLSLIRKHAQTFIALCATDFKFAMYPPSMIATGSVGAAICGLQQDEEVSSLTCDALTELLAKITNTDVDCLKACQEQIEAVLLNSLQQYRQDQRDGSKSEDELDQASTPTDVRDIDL
Under “normalised enrichment score”, `PPAKRRLELAESG [G10A]` is recorded as 0.377.
`APAKRRLELGESG [P1A]`: “normalised enrichment score” 0.22.
For `PPAKRRLEFGESG [L9F]`, “normalised enrichment score” read 1.12.
`PPAKRRAELGESG [L7A]` — result for “normalised enrichment score”: 0.259.
`PPAKRALELGESG [R6A]`: “normalised enrichment score” 0.305.
Under “normalised enrichment score”, `PPAKRRLELGESA [G13A]` is recorded as 0.131.
`PPAKRRLELGEAG [S12A]` — result for “normalised enrichment score”: 0.384.

Further values, each from its own experiment
`PhoQ, residues 284 288 289 292 302 303 SSTMSV` gave a fold induction of 4.09 (PhoP, residues 12 14 15 18 19 VQGLL (Escherichia coli, UniProt P23836); Sort-seq, refers to: YFP reporter; E. coli; PhoQ-PhoP variant library, added: 10 µM Mg2+; relative to: high Mg2+ state, higher = stronger signaling).

Excerpt of the above (block 2):
`2'F-ANA at 2 4 8 11 13 14 15`: “mean fluorescence intensity” 90.5 a.u.
`2'F-ANA at 2 3 11` — result for “mean fluorescence intensity”: 813 a.u.
`2'F-ANA at 4 7 8 10 13` — result for “mean fluorescence intensity”: 75.4 a.u.
`2'F-ANA at 2 3 4 5 6 9 10 13 14`: “mean fluorescence intensity” 83.4 a.u.
